Measured values gathered from unrelated publications.
Each numbered part is a random draw from the data of one study; scales do not carry over between parts.
UniProt P10721, sequence (whole entry, looked up): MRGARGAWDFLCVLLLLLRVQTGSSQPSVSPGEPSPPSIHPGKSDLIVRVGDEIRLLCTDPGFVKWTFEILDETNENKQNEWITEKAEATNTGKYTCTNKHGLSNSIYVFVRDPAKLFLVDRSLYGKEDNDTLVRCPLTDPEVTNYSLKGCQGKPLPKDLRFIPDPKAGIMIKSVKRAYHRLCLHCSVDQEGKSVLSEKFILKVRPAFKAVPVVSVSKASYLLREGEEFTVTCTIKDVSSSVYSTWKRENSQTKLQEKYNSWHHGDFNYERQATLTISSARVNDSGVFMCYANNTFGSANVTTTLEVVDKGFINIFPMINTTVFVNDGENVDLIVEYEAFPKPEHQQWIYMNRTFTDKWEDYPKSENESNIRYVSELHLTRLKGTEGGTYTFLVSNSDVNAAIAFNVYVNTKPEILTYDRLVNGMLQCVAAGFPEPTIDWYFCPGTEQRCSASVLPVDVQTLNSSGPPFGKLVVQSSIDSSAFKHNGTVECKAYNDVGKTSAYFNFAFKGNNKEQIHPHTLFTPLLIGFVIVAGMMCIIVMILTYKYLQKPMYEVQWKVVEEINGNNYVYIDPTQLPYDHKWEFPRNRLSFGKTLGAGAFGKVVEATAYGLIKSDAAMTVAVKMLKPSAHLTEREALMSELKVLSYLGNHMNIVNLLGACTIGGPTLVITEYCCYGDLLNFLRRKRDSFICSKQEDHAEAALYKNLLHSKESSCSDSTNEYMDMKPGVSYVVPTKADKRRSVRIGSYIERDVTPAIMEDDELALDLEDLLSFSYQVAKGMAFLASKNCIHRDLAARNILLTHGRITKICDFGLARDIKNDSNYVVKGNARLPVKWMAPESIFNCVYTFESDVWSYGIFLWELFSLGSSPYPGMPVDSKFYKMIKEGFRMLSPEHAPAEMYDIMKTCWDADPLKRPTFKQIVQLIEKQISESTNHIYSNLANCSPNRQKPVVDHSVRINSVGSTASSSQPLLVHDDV
UniProt Q9UEE5, sequence (whole entry, looked up): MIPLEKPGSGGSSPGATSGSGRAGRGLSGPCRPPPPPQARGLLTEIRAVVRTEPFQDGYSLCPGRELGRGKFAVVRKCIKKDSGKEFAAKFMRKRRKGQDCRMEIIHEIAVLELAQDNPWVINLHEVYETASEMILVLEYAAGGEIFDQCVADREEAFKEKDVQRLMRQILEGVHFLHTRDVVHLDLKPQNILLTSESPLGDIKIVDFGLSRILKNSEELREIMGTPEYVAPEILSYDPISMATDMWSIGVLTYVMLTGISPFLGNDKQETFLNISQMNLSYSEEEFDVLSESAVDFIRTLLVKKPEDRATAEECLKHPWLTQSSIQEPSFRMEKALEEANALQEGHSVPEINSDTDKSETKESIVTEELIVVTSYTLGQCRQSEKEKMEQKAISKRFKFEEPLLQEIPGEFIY
UniProt Q13131, sequence (whole entry, looked up): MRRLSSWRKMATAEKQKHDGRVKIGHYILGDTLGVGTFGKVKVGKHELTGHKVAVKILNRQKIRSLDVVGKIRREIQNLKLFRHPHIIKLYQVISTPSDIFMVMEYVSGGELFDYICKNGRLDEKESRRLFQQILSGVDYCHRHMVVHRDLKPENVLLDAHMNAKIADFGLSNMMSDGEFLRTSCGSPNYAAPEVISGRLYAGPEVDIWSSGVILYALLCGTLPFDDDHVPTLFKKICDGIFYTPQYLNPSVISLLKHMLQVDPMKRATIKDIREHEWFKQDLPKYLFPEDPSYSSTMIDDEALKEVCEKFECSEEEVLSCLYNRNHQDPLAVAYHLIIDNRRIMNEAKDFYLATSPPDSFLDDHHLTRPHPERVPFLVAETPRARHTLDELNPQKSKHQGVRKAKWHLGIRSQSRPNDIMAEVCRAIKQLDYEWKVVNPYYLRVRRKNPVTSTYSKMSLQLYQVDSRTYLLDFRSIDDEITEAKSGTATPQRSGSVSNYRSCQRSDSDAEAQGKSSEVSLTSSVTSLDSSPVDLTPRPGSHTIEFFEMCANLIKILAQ
UniProt P06213, sequence (whole entry, looked up): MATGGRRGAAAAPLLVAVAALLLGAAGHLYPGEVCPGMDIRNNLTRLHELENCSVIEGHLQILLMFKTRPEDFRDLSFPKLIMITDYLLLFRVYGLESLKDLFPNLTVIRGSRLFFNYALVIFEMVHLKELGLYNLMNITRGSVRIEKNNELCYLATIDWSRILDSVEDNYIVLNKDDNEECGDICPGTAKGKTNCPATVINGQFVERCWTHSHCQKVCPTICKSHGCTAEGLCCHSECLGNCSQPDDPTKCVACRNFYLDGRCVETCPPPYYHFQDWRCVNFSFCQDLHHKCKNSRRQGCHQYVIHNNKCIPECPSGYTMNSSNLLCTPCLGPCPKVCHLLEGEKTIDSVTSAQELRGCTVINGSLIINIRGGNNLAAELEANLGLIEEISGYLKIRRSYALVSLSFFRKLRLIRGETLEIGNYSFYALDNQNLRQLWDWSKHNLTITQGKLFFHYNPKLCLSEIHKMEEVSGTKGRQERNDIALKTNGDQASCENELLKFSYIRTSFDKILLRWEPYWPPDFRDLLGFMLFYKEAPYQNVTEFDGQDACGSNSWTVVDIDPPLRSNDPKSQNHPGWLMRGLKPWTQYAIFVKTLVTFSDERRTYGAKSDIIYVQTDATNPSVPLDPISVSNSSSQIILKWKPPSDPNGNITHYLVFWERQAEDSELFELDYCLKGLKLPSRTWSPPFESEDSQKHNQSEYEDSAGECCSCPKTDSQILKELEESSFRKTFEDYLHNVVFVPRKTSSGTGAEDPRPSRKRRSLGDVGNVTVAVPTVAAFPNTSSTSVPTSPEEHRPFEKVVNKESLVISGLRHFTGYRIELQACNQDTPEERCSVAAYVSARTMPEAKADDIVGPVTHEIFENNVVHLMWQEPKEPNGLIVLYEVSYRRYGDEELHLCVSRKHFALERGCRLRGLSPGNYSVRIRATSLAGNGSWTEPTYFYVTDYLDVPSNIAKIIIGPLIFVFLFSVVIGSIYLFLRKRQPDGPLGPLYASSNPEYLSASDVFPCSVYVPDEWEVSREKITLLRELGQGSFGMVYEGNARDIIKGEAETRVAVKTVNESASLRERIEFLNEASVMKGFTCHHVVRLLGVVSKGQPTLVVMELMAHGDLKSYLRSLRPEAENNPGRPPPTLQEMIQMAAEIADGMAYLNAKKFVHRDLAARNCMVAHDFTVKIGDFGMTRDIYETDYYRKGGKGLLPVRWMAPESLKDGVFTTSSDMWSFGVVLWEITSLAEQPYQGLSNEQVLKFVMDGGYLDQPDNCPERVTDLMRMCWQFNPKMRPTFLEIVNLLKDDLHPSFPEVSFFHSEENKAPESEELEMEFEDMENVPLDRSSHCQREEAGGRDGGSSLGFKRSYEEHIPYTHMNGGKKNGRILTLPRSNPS
UniProt P45983, sequence (whole entry, looked up): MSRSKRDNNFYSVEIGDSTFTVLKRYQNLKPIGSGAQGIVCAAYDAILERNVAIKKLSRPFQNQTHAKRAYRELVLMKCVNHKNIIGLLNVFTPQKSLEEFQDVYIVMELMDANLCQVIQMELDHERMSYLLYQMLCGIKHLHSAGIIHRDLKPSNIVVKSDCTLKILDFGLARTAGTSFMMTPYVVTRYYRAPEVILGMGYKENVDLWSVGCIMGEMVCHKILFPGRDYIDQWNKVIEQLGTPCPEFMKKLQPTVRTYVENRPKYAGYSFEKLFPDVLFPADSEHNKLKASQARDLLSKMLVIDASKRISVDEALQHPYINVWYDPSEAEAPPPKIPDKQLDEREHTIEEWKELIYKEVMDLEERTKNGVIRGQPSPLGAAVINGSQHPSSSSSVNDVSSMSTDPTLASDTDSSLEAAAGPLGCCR

Study 1 — effect on: enzyme activity; mode: inhibitor; tested at: 0.5 µM; baseline: control
Target: Ephrin type-A receptor 7 (EPHA7, Homo sapiens, UniProt Q15375)
UniProt Q15375, sequence (whole entry, looked up): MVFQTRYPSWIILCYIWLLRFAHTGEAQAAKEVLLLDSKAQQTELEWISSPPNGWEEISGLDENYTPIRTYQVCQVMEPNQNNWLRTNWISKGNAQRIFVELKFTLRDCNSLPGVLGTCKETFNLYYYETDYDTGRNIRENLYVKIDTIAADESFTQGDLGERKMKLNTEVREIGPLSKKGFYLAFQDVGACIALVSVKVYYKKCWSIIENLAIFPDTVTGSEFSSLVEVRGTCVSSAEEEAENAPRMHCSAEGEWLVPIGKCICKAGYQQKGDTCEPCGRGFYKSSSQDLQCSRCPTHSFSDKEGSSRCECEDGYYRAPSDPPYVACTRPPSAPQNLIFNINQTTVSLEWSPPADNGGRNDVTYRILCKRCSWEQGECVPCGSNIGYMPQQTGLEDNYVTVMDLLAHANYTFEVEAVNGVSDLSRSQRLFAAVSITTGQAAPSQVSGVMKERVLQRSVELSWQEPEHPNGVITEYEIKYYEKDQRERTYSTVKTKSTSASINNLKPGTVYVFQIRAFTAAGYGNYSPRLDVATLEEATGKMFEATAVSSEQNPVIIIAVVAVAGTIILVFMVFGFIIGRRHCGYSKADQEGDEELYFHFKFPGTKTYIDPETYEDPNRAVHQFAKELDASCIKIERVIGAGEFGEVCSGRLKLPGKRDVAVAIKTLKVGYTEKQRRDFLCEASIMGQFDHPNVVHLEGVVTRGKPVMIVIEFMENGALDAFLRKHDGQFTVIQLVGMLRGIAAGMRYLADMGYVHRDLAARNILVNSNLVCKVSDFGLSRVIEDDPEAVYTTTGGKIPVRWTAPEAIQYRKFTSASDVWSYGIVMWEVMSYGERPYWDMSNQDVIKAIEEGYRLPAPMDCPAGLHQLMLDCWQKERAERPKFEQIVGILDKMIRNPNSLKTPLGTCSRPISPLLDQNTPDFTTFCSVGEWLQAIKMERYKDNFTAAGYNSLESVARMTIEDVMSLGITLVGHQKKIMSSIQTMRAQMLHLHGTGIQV
With `O=C(O)c1ccc2c3c1cccc3c(=O)n1c3ccccc3nc21` the remaining activity was 103%.
For `N#CC(C#N)=C(N)/C(C#N)=C/c1ccc(O)cc1`, the remaining activity was 90.5%.
`Cc1ccc(NC(=O)c2ccc(CN3CCN(C)CC3)cc2)cc1Nc1nc(-c2cccnc2)cs1` gave a remaining activity of 99.7%.
With `CNC(=O)c1cc(Oc2ccc(NC(=O)Nc3ccc(Cl)c(C(F)(F)F)c3)cc2)ccn1` the remaining activity was 80.7%.
The remaining activity of `COc1cc2ncnc(Nc3ccc(F)c(Cl)c3)c2cc1OCCCN1CCOCC1` is reported as 74.3%.
`COc1ccc(CNC(=O)Nc2ncc([N+](=O)[O-])s2)cc1` gave a remaining activity of 96.6%.
With `NCCNc1ncc(C(N)=O)c(Nc2cccc(C(F)(F)F)c2)n1` the remaining activity was 82%.
For `O=C1NC(=O)C(c2cn(CCCn3ccnc3)c3ccccc23)=C1Nc1ccccc1`, the remaining activity was 89.5%.
`CN(C)c1ccc(C=C2C(=O)Nc3ccccc32)cc1` gave a remaining activity of 99.1%.
`O=C1NC(=O)C(c2cn(CCCO)c3ncccc23)=C1c1cnccn1` has a remaining activity of 105%.
With `Cn1c2ccccc2c2c3c(c4c5ccccc5n(CCC#N)c4c21)CNC3=O` the remaining activity was 62.6%.
`Nc1[nH]nc2nc3ccccc3nc12` has a remaining activity of 95.3%.
With `C#Cc1cccc(Nc2ncnc3cc(OCCOC)c(OCCOC)cc23)c1` the remaining activity was 69.8%.
`COc1cc2ncnc(Nc3ccc(Oc4ccccc4)cc3)c2cc1OC` has a remaining activity of 100%.
`Nc1ncnc2n[nH]c(Nc3ccc(F)cc3)c12` has a remaining activity of 101%.

Study 2 — technique: protein binding microarray; form: double-stranded DNA, one strand shown; matrix: in vitro; tested at: not given; baseline: not given; reading: higher = stronger binding
Target: Histone acetyltransferase KAT6A, winged helix 1, GST fusion (KAT6A, Homo sapiens, UniProt Q92794, residues 1-85)
Setting: 8-mer, flanks averaged, mean of 2 arrays, mostly near background
Residues (chain): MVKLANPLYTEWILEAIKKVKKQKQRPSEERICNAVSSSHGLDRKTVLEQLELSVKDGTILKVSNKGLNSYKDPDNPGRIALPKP
The E-score of `GTTGTCAA` is reported as -0.0793.
For `GGATATAA`, the E-score was -0.257.
`GCGGATGA` has an E-score of 0.117.
With `GATCACCA` the E-score was 0.00965.
`GCCGGATA` gave an E-score of 0.275.
`CTCTCTTC` gave an E-score of -0.0909.
With `AGACACAC` the E-score was -0.196.
`CAAGCTTG` gave an E-score of -0.0236.

Study 3 — effect on: cell-free assay; technique: competition with immobilised ligand; tested at: 1 µM
Structure (SMILES): CNC(=O)Nc1ccc2c(c1)[C@@]1(CC2)OC(=O)N(CC(=O)N(Cc2ccc(F)cc2)[C@@H](C)C(F)(F)F)C1=O
It gave 83% for remaining binding (SLK (Homo sapiens, UniProt Q9H2G2)).
For PRKAA1 (Homo sapiens, UniProt Q13131): remaining binding read 91%.
The remaining binding was 71% (MAPK8 (Homo sapiens, UniProt P45983)).
STK17A (Homo sapiens, UniProt Q9UEE5) — remaining binding: 88%.
The remaining binding was 73% (Insulin receptor (INSR, Homo sapiens, UniProt P06213)).
The remaining binding was 89% (Mast/stem cell growth factor receptor Kit, autoinhibited (KIT, Homo sapiens, UniProt P10721)).

Study 4 — technique: RNAcompete; form: RNA; matrix: in vitro; tested at: 20 nM; setting: 7-mer, probes averaged, single round; baseline: mean of 7-mers; reading: higher = stronger binding
Target: PABPC1L2, full length, GST fusion (mouse, UniProt A0ABA7IW68)
Construct (chain): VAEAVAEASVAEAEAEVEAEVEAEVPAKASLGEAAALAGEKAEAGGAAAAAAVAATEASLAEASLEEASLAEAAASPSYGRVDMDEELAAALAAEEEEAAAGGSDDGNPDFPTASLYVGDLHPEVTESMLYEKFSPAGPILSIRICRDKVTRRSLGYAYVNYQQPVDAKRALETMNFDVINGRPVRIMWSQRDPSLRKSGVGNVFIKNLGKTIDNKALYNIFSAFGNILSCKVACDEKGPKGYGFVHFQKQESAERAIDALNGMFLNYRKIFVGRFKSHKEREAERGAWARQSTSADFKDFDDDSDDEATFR
`UGCAAAG` gave a 7-mer Z-score of 0.0207.
`GACAAGG` has a 7-mer Z-score of 0.383.
`AGUUCCA` gave a 7-mer Z-score of -0.135.
`GGGGAGG` has a 7-mer Z-score of 0.534.
The 7-mer Z-score of `CCUUACC` is reported as -0.347.
The 7-mer Z-score of `GCACACA` is reported as -0.00108.
With `UUAGCGU` the 7-mer Z-score was -0.157.
With `UGCACCU` the 7-mer Z-score was -0.277.
